Measured values from different studies.
Parts stem from different laboratories: compare values within a part only. Numbers after ± are the reported error.
UniProt Q04771, sequence (whole entry, looked up): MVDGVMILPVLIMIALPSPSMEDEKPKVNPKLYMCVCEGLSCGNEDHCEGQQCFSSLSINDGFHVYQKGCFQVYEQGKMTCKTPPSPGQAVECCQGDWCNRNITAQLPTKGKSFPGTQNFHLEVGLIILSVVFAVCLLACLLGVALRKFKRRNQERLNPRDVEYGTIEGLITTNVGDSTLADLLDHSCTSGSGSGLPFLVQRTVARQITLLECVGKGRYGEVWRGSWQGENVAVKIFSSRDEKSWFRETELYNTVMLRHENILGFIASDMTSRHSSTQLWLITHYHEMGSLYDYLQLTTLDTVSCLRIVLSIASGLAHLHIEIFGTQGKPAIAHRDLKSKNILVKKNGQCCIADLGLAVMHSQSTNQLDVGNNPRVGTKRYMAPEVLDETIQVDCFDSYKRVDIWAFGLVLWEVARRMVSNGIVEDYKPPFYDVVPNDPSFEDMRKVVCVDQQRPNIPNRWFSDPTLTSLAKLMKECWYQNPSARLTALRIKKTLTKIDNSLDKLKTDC
UniProt Q99986, sequence (whole entry, looked up): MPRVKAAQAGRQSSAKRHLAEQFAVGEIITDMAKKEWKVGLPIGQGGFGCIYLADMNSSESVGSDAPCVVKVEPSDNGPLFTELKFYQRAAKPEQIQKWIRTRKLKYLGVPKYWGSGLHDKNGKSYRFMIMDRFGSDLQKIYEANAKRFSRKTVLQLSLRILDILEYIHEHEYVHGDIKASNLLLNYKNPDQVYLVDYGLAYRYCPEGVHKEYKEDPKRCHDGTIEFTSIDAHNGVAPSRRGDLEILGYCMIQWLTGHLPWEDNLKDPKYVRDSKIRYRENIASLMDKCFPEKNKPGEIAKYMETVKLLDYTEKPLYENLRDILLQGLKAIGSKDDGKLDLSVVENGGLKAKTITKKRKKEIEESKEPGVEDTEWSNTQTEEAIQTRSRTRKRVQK
UniProt Q7L7X3, sequence (whole entry, looked up): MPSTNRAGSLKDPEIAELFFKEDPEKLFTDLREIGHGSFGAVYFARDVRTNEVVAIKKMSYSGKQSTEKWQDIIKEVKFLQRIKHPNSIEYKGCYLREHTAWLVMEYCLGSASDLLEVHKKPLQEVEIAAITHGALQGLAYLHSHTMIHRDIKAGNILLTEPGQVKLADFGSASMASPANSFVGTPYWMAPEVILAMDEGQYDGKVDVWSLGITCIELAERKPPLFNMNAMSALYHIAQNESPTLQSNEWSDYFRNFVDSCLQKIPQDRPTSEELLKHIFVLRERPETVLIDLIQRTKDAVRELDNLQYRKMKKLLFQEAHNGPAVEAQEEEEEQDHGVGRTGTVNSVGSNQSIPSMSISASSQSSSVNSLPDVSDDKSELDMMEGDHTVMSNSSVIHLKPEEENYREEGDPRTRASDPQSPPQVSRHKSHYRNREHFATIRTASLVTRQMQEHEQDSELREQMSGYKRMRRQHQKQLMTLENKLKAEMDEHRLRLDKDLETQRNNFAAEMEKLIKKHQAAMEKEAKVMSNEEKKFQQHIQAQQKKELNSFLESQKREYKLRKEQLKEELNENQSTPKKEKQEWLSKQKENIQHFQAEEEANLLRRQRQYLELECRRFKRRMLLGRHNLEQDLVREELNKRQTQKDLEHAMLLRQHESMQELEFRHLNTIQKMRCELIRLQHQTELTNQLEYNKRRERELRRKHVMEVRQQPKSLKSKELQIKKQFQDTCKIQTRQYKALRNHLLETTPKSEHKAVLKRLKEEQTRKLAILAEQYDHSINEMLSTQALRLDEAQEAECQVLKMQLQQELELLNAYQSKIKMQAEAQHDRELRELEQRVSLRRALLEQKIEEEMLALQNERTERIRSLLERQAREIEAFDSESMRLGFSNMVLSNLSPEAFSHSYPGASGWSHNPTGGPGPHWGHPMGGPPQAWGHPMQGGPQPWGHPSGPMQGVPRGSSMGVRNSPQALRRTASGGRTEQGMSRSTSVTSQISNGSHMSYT
UniProt P53350, sequence (whole entry, looked up): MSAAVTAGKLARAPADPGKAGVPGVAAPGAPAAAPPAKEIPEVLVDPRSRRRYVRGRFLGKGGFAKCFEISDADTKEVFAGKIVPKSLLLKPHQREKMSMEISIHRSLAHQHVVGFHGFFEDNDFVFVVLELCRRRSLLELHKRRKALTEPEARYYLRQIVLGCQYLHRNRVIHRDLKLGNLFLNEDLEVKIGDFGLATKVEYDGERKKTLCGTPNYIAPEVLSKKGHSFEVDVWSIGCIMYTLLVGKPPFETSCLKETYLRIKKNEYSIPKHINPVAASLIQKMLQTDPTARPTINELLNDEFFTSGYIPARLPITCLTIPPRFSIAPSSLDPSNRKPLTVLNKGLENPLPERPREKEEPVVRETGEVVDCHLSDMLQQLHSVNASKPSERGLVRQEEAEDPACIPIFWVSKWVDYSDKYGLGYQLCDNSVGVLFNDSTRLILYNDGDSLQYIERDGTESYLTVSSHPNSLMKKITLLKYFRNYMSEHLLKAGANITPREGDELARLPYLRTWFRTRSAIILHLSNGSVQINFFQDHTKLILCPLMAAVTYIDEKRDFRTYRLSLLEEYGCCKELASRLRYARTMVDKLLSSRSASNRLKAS
UniProt P80192, sequence (whole entry, looked up): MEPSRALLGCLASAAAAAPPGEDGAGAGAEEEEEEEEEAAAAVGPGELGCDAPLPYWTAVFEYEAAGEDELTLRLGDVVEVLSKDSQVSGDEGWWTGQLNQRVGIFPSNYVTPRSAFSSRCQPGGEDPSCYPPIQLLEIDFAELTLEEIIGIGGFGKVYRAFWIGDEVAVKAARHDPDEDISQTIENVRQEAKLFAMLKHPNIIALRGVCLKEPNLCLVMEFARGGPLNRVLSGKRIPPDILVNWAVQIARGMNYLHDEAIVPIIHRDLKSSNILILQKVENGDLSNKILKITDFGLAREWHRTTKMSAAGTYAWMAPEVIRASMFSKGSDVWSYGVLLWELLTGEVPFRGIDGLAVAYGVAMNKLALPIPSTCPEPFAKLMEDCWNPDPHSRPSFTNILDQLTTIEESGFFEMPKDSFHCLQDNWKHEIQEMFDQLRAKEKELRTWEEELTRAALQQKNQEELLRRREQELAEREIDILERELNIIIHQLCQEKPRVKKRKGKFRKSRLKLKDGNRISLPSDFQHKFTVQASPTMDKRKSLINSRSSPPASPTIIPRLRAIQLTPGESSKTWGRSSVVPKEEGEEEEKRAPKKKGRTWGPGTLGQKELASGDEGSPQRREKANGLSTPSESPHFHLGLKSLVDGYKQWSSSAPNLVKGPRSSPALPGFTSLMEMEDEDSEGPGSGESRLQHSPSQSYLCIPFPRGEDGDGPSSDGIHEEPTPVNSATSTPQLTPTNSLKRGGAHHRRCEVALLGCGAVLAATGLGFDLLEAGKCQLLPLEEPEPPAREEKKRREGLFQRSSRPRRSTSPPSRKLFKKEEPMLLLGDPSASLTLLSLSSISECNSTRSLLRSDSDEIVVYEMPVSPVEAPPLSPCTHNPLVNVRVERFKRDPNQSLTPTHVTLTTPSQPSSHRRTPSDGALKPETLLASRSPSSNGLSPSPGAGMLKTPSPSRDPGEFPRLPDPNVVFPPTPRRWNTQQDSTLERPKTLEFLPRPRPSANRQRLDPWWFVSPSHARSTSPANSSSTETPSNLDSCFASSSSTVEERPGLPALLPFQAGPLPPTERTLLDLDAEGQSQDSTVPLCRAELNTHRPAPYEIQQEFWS
UniProt P47898, sequence (whole entry, looked up): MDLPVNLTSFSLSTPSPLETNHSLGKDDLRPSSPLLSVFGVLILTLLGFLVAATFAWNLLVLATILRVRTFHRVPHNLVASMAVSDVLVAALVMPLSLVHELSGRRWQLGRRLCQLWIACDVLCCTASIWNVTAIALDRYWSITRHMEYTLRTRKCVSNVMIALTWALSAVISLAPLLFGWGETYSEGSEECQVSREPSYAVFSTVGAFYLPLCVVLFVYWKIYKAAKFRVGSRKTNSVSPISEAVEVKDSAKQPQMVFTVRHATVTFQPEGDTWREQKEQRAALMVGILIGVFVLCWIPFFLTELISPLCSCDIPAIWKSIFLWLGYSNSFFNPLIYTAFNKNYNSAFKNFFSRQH
UniProt O43353, sequence (whole entry, looked up): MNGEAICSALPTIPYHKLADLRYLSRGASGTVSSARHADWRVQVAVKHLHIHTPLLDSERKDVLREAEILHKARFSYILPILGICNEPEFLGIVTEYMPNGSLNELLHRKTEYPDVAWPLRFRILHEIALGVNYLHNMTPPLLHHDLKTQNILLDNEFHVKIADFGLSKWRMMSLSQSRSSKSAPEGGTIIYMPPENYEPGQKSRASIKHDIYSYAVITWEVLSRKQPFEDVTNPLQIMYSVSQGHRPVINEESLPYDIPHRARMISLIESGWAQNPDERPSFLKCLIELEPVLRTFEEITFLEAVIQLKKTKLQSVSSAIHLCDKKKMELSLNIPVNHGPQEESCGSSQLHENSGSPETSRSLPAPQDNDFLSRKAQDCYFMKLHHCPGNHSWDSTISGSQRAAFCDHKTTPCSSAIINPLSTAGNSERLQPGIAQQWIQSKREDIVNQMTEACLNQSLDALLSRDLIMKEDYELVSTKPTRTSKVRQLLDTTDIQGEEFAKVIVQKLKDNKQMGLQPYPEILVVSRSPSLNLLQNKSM

Study 1
Target: Beta-1 adrenergic receptor (ADRB1, Homo sapiens, UniProt P08588)
UniProt P08588, sequence (whole entry, looked up): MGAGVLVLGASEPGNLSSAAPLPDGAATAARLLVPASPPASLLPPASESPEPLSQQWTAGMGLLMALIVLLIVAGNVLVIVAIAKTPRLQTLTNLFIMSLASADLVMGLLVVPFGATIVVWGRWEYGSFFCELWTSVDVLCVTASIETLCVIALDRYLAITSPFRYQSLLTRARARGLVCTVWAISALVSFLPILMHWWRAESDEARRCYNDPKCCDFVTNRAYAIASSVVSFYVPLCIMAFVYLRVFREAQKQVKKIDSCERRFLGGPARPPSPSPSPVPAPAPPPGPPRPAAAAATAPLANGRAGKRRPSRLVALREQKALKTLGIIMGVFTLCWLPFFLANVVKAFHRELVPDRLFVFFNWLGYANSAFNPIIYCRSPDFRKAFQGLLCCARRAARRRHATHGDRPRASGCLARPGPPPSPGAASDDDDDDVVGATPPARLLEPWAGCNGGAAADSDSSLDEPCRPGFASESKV
Mode: antagonist
Endpoint: IC50
SMILES = COc1ccccc1N1CCN([S+](=O)([O-])c2cc(C)c(C)cc2C)CC1; value = ≥ 100 µM
SMILES = O=C1c2cnc(-c3ccccc3F)nc2OCCN1c1cccc(C(F)(F)F)c1; value = ≥ 100 µM
SMILES = COC(=O)C1CCN(CC(O)COc2cccc(CN3CC=C(C)CC3)c2)CC1 (centres unmarked); value = ≥ 100 µM
SMILES = C[S+](=O)([O-])c1cccc(Nc2n[nH]c(C(O)c3ccccc3)n2)c1 (centres unmarked); value = ≥ 100 µM
SMILES = COc1ccccc1-c1cc(-c2ccccc2)nc2c(C)noc12; value = ≥ 100 µM
SMILES = C=CCn1c(=O)c2cnc(Nc3ccc(N4CCN(C)CC4)cc3)nc2n1-c1cccc(C(C)(C)O)n1; value = ≥ 100 µM
SMILES = COc1ccccc1N1CCN(C(=O)c2ccc3c(c2)OCCO3)CC1; value = ≥ 100 µM
SMILES = COc1cc(OC)c2ccc(=O)oc2c1; value = ≥ 100 µM
SMILES = Cc1ccc2c(CSc3nnnn3-c3ccc(Cl)cc3)cc(=O)oc2c1; value = ≥ 100 µM
SMILES = CC(C)N(C)C(=O)c1cc(-c2cnc(C(C)(C)C)nc2)nc2cc(F)ccc12; value = ≥ 100 µM
SMILES = OC(CN1CCC(Cc2ccc(F)cc2)CC1)c1ccc(Cl)cc1 (centres unmarked); value = ≥ 100 µM
SMILES = CN1CCN(CC(O)COc2cccc3[nH]ccc23)c2ccccc21 (centres unmarked); value = ≥ 100 µM
SMILES = C[S+](=O)([O-])Nc1ccc(OC[C@@H](O)CNCCc2ccc(Cl)c(Cl)c2)cc1; value = ≥ 100 µM
SMILES = O=c1cc(N2CCNCC2)nc2sc3ccc4ccccc4c3n12; value = ≥ 100 µM

Study 2
SMILES: COc1ccc(COc2ccc(Cc3cnc(N)nc3N)cc2OC)cc1
Read-out: enzyme activity
Mode: inhibitor
Tested at: 0.5 µM
Reference: control
Endpoint: remaining activity
target = Activin receptor type-1 (ACVR1, Homo sapiens, UniProt Q04771); value = 100%
target = Mitogen-activated protein kinase kinase kinase 9 (MAP3K9, Homo sapiens, UniProt P80192); value = 105%
target = Receptor-interacting serine/threonine-protein kinase 2 (RIPK2, Homo sapiens, UniProt O43353); value = 81.9%
target = Serine/threonine-protein kinase TAO1 (TAOK1, Homo sapiens, UniProt Q7L7X3); value = 110%
target = Serine/threonine-protein kinase Sgk3 (SGK3, Homo sapiens, UniProt Q96BR1); value = 105%
target = BDNF/NT-3 growth factors receptor (NTRK2, Homo sapiens, UniProt Q16620); value = 31.2%
target = Serine/threonine-protein kinase PLK1 (PLK1, Homo sapiens, UniProt P53350); value = 97.1%
target = Serine/threonine-protein kinase VRK1 (VRK1, Homo sapiens, UniProt Q99986); value = 91.4%
target = Platelet-derived growth factor receptor beta (PDGFRB, Homo sapiens, UniProt P09619); value = 98.2%
target = Serine/threonine-protein kinase D3 (PRKD3, Homo sapiens, UniProt O94806); value = 97.1%

Study 3
SMILES: COc1cc(C(=O)N2CCC(N3CCN(C)CC3)CC2)ccc1Nc1ncc2c(n1)N(C)c1ccccc1C(=O)N2C
Read-out: kinase activity
Endpoint: remaining activity
target = ROCK2; tested at = 10 µM; value = 84 ± 11%
target = IKKe; tested at = 10 µM; value = 88 ± 4%
target = PKBa; tested at = 1 µM; value = 71 ± 1%
target = GCK; tested at = 10 µM; value = 99 ± 4%
target = MNK2; tested at = 1 µM; value = 72 ± 2%
target = RSK2; tested at = 10 µM; value = 59 ± 33%
target = BTK; tested at = 10 µM; value = 75 ± 1%
target = PRK2; tested at = 1 µM; value = 74 ± 10%
target = PIM1; tested at = 10 µM; value = 87 ± 1%
target = ERK8; tested at = 1 µM; value = 86 ± 1%

Other studies, line by line
SMILES = C[C@H](c1cccc(C#N)c1)n1cc(Cl)cc(C(N)=O)c1=N; target = 5-hydroxytryptamine receptor 5A (HTR5A, Homo sapiens, UniProt P47898); read-out = ligand displacement; tested at = 10 µM; endpoint = inhibition; value = -5.97%

Repeated from above (study 3):
target = GCK; tested at = 10 µM; value = 99 ± 4%
target = MNK2; tested at = 1 µM; value = 72 ± 2%
target = RSK2; tested at = 10 µM; value = 59 ± 33%
